# Experimental data collected from several papers.
# Numbered parts are unrelated; each lists some results of a single study. Substitutions count along the parent as printed.

# Set 1 — target: human cyclin B2; read-out: peptide binding; method: yeast competitive growth sequencing; molecule type: peptide; organism: Saccharomyces cerevisiae; strain: cyclin B2-Cln2 fusion; concentration: concentration not given; notes: peptide tiling library; direction: direction not given
Sequence,binding enrichment score
NESHLDKEHDAVEVAD,-0.258
NSMKELNFSHLPSNSV,0.515
KVRRNLFNQELLSP,0.221
LKGRRLVFDN,0.501
TSSAQRRLEIPSGGAD,0.0934
IPMIAKNLMCELDE,0.793
LAKRALKYTD,0.565
PPTFLSTGEIHAFLSS,0.476
TQERKQIHCLSEDELS,-0.671
KRRLDLETDHQY,0.379
VSRNLRSSLKSSLHTL,0.065
KRNLLNEFDRII,1.46

# Set 2 — method: RNA Bind-n-Seq; molecule type: RNA; medium: in vitro; concentration: 365 nM; reference: no-protein control; direction: higher = stronger binding
# Target: RNA binding protein fox-1 homolog 2, RRM domain, GST-SBP tag (RBFOX2, Homo sapiens, UniProt O43251-10, residues 100-194)
# Notes: natural RNA segment, single round, ends assumed
# Shared flanks, not repeated: GGGAGUUCUACAGUCCGACGAUC … UGGAAUUCUCGGGUGCCAA
# Target sequence (chain): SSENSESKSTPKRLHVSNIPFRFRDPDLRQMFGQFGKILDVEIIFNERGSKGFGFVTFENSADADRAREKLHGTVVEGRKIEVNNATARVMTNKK
Oligonucleotide,RBNS enrichment (R)
ACCUGGAGGACAGUGUGUGCCAUGUCUCCCAUACUAGAGAUAAAUAAAUGUAGCCACAUUUACUGUGUAUCUGUUAUAAUUCUCUAUUUUUUGAAGCUCAAAUAUCAAAA,0.514
AGUUAUUUAAUUAUUAAAGGUGCCACGGUGGGACCUUUGGGAUGACUUAAAAAGGGUUCUUUGUUGGGAGUCAAGUGACAGAGCAGACCUGGCCGCAGGGAGUUGUUCUG,0.416
UCAGAUCUCCCUUGCUAUUACAGUAGGUUACUAUUAAUGAGGGCAGCACCUGAUGCCUUUUGUACUGAGGUAUGUAACUUUCUCCUUAUUUGACAAGUAGAAGUUAACUU,0.658
UUAAAUCAUGUGAUUUAUAGUUUUUAAGUUGGCAUAAUUCAACUUAUGGUAUAACUGGGUCCCUCAACAGUAACCUGGGCUAAAAUAGGUCUUAUGUGGUUCAACUCCCA,0.279
AAAUGUCUGGCAUUUUAAACUUUUGUAGAAUACAUUAUGUUGGACACUGGAAUAAUACUAUUUAUUUUCACCUGUGAAAAAUGACUUCAUUGUACUUGAAACACCUCCUU,0.511
UGCACUUGCACUAGAGCAGCCGGUGCCCAUGCAGAGUGAACGUGGCUGAAUUAACUUUUCCAACAACCAAGUGGGUCAGCAAUUUGAUGCCCUUGAUAAAUAUCAACUUU,0.33
AUGGAGUUGUUUACAUUAAGCAUGACCGAACGAGAGACAAUACUAUUUCCCACAGGAGUCCAUUGGGUUCAGCUUUGAAAGAGGAAUAGAAUCGAGGCUCCUUUGACCAU,0.518
AGAGAGACCUCAUCCUGCUCUUUUGUGAUGAACAUAUUCAUGAAAUGUGGAAGUCAGUACGAUCAAGUUGUUGACUGUGAUUAGAUCACAUCUUAAAUUCAUUUCUAGAC,0.252

# Set 3 — method: DHFR PCA, deep sequencing; medium: yeast; together with: (+)-ABA 0.39 µM; reference: wild-type fitted maximum; direction: higher = stronger binding
# Target: ABI1, truncated, D143A, DHFR fusion (Arabidopsis thaliana)
# Notes: methotrexate growth selection, single substitutions
# Parent: PYL1, truncated, DHFR fusion (Arabidopsis thaliana); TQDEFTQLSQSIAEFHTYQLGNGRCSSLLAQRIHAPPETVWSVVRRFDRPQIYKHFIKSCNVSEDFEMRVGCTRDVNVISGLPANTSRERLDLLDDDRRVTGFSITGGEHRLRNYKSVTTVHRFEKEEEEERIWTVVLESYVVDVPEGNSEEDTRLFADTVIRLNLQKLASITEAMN
Variant,relative binding score
E125W,19.4%
S9E,54.3%
S104Q,-17.7%
N114R,1.35%
Y115S,3.45%
D144H,-0.0985%
P146G,4.04%
T173Y,-26.4%
E128G,72.4%
W134Y,84.8%
V143N,-25.2%
D159L,-18.2%

# Further values, each from its own experiment
Molecule,target,assay,test system,conditions,scale,quantity,result
"PhoQ, residues 284 288 289 292 302 303 AMDMFI","PhoP, residues 12 14 15 18 19 FWNTL (Escherichia coli, UniProt P23836)","Sort-seq, item: YFP reporter",E. coli,"PhoQ-PhoP variant library, together with: 10 µM Mg2+","reference: high Mg2+ state, higher = stronger signaling",fold induction,3.11

# A few entries again (set 1):
Sequence,binding enrichment score
LKGRRLVFDN,0.501
TSSAQRRLEIPSGGAD,0.0934
IPMIAKNLMCELDE,0.793
LAKRALKYTD,0.565
PPTFLSTGEIHAFLSS,0.476
